Measured values of several laboratories.
Numbers after ± are the reported error.
Cell line: A549

C[O][Pt-2]1([Cl])([Cl])([O]C(=O)CCC(=O)OCCO)[NH2+]CC[N+]1(C)C
IC50 (cell growth or viability, MTT; 96 h): 120 µM

COc1c(OCc2ccccc2)cc2oc3cc(OCc4ccccc4)c(CC=C(C)C)c(O)c3c(=O)c2c1CC=C(C)C
IC50 (cell growth or viability; 48 h): 10.3 µM

CCCCCCCCC=CCCCCCCCC(=O)OC(COC(=O)Cc1c(C)n(C(=O)c2ccc(Cl)cc2)c2ccc(OC)cc12)COP(=O)([O-])OCC[N+](C)(C)C (stereo not shown)
IC50 (cell growth or viability, SRB; 72 h): 42.2 µM

C=C1C(=O)[C@@]23CC[C@@H]4[C@](C)(COC(C)=O)CCC[C@@]4(C)[C@@H]2[C@@H](O)C[C@@H]1C3 (single isomer, unassigned)
IC50 (cell growth or viability, MTT): 19 µM

N#Cc1c(F)c(Cl)c2nc(SCc3ccc4ccccc4c3)nc(N)c2c1F
IC50 (cell growth or viability, MTT; 96 h): 9.28 µM

COc1ccc(CN2C[C@H](O)[C@H](O)[C@@H]2CO)cc1
IC50 (cell growth or viability, MTS; 72 h): > 200 µM

Nc1ncnc2c1sc1sc3c(N)ncnc3c12
IC50 (cell growth or viability, MTT): 4.69 µM

O=C1c2cccc3cccc(c23)C12NC(Cc1ccc(O)cc1)C([N+](=O)[O-])C2c1ccc(Cl)cc1 (stereo not shown)
IC50 (cell growth or viability, MTT; 24 h): 59.2 µM

C[C@]12CC/C(=N\OCCN3CCCC3)C=C1CCC1C2CC[C@]2(C)/C(=C/c3ccccn3)CCC12 (stereo partly shown)
IC50 (cell growth or viability, MTT; 72 h): 2 µM

O=C(Nc1ccc([N+](=O)[O-])cc1)C(c1ccc(C(F)(F)F)cc1)N(Cc1ccccc1)C(=O)c1ccc2ccccc2n1 (stereo not shown)
IC50 (48 h): 33.3 ± 2.1 µM

Cc1c(-c2cccc(C3=NCCN3)c2)oc(-c2cccc(C3=NCCN3)c2)c1C
IC50 (cell growth or viability, SRB): 0.3 µM

Cl.[Cl][Ru-]1[S+]=C(NC2CCCCC2)N[N+]1=Cc1ccc(N(c2ccccc2)c2ccccc2)cc1.c1ccccc1
IC50 (cytotoxicity, MTT; 24 h): 96.4 ± 5.6 µM

CC(=O)[C@@H]1CCCN1C(=O)[C@@H]1CCCN1C(=O)[C@H](Cc1ccccc1)NC(=O)OC(C)(C)C
IC50 (cell growth or viability, SRB): 5 µM

Cc1cc(C=O)cc(C)c1Oc1cc(Nc2ccc(C#N)cn2)nc2ccncc12
IC50 (48 h): > 126 µM

CCNC(=O)OCc1c(COC(=O)NCC)c(-c2ccc(OC)cc2)n2c1Cc1ccccc1-2
IC50 (cell growth or viability, resazurin; 72 h): 15.5 µM

Cc1c(C)c(C)[c-](C)c1C.O=[N+]([O-])c1ccnc(-c2[c-]cccc2)c1.[Cl-].[Ir+3]
IC50 (SRB; 24 h, 72 h recovery): 20.1 ± 0.3 µM

N#Cc1cccc(-c2ccc(=O)n(Cc3cccc(-c4ncc(OCC5CCN(CCCCC(=O)Nc6ccc7c(c6)C(=O)N(C6CCC(=O)NC6=O)C7=O)CC5)cn4)c3)n2)c1 (stereo not shown)
IC50 (cell growth or viability, CCK-8; 72 h): 0.977 µM

Cc1cc(C)c([N+]#[C][Pt-]([Cl])([Cl])=[C](Nc2cccc(CN[C](Nc3c(C(C)C)cccc3C(C)C)=[Au][Cl])c2)Nc2c(C)cc(C)cc2C)c(C)c1
IC50 (cell growth or viability): > 100 µM

COc1cc(N(C)CCN(C)C)c(NC(=O)/C=C/c2ccc(Cl)cc2)cc1Nc1nccc(-c2cn(C)c3ccccc23)n1
IC50 (cell growth or viability, MTT; 72 h): 0.295 µM

CN1CCC2(CC1)C/C(=N\NC(=O)Nc1ccccc1)c1ccccc1O2
IC50 (cell growth or viability, MTT; 48 h): 5.83 µM

Cc1cc(C)c([N+]#[C][Pd-]([Cl])([Cl])=[C](Nc2ccc(CN[C](Nc3c(C(C)C)cccc3C(C)C)=[Au][Cl])cc2)Nc2c(C)cc(C)cc2C)c(C)c1
IC50 (cell growth or viability): > 100 µM

CCCC(CCC)C(=O)NCCNC(=O)[C@]1(C)[C@@H]2CC[C@]3(C)[C@H](C(=O)C=C4[C@@H]5[C@@H](C)[C@H](C)CC[C@]5(C)CC[C@]43C)[C@@]2(C)CC[C@H]1OC(C)=O
IC50 (cell growth or viability, MTT; 48 h): > 30 µM

Cc1ccc(C2=NN(C3=NC(=O)/C(=C/c4ccc(Cl)cc4)S3)C(c3ccc(F)cc3)C2)cc1 (stereo not shown)
IC50 (cell growth or viability, MTT): 43.1 µM

COc1cc(-c2nc(N)[nH]c2C(=O)c2ccccc2)cc(OC)c1OC
IC50 (cell growth or viability, SRB; 24 h): 0.183 µM

Cc1nnc(NC(=O)CSc2nnc(-c3ccc4c(c3)OCCO4)o2)s1
IC50 (cell growth or viability, MTT; 36 h): 23.8 µM

COc1ccc(C=C2SC(N3N=C(c4cccs4)CC3c3ccc(F)cc3)=NC2=O)cc1 (stereo not shown)
IC50 (cell growth or viability, MTT): 6.53 µM

C=CC(=O)Nc1cc(Nc2nccc(-c3c(-c4ccc(C(F)(F)F)cc4)n(C)c4ccccc34)n2)c(OC)cc1N(C)CCN(C)C
IC50 (cell growth or viability, MTT; 72 h): 0.414 µM

CCN1CCC2(CC1)C/C(=N\NC(=O)Nc1ccc(C)cc1)c1ccccc1O2
IC50 (cell growth or viability, MTT; 48 h): 11.9 µM

C[OH+][Cu-2]12[O]C(c3cn(-c4ccccc4)nc3-c3ccc(F)cc3)=N[N+]1=C(C)c1c(cc(C)oc1=O)[O]2 (stereo not shown)
IC50 (cell growth or viability, MTT; 48 h): 7.4 µM

Cc1cc(C)c([N+]#[C][Pt-]([Cl])([Cl])=[C](Nc2ccc(CN[C](Nc3c(C(C)C)cccc3C(C)C)=[Au][Cl])cc2)Nc2c(C)cc(C)cc2C)c(C)c1
IC50 (cell growth or viability): > 100 µM

CC(=O)OC[C@]1(C)CCC[C@]2(COC(C)=O)[C@@H]1CC[C@@]13C[C@@H](C[C@H](O)[C@H]12)[C@@H](C)C3=O
IC50 (cell growth or viability, MTT): > 20 µM

S=c1n(-c2ccccc2)c2c3ccccc3nc3[n+]2[n]1[Ir-3]12([S]3)([c]3ccc4ccccc4c3-c3sc4ccccc4[n+]31)[c]1ccc3ccccc3c1-c1sc3ccccc3[n+]12
IC50 (cell viability, MTT; dark): > 25 µM

Oc1ccccc1-c1nn(-c2ccccn2)[n+](-c2ccccc2)n1
IC50 (cell growth, resazurin): 28 ± 4 µM

COc1c(C)c(OC(=O)c2ccccc2)c(C)c(OC(=O)c2ccccc2)c1C(=O)/C=C/c1ccccc1
IC50 (cell growth or viability, SRB; 72 h): 30.9 µM

CCn1cc[n+](CC)[c]1[Au-][Cl]
IC50 (cell growth or viability, crystal violet; 72 h): 13.5 µM

CC(=O)[O][Pt]1([O]C(C)=O)[O]C(=O)C(=O)[O]1.NC1CCCCC1N
IC50 (cell growth or viability): 35.1 µM

CCN(CC)CCN1C(=O)c2ccc3c4cccc5c(N6CCNCC6)ccc(c6ccc(c2c36)C1=O)c54
IC50 (cell growth or viability, SRB; 72 h): 3.1 µM

O=S(=O)([O-])[O-].[Cu+2].c1ccc(-c2nnc(-c3ccc4c(c3)OCO4)[nH]2)nc1
IC50 (cell growth or viability, MTT; 24 h): 7.42 µM

Cc1ccc2ccc3ccc(C)nc3c2n1.Cc1ccc2ccc3ccc(C)nc3c2n1.Clc1ccc(-c2cc(-c3ccccn3)nn2-c2ccccc2)cc1.[Cl-].[Cl-].[Ru+2]
IC50 (resazurin; 72 h, together with: indigo light 450 nm, 29.1 J/cm2): 5.5 µM

C=CC(=C)CC[C@]1(C)[C@H](C)CC[C@@]23C(=C[C@H](OC(=O)CCCCC)C[C@@H]12)[C@@H](OC(C)=O)O[C@H]3OC(C)=O
IC50 (cell growth or viability, SRB): 2.29 µM

Cc1cc(C)c([N+]#[C][Pd-]([Cl])([Cl])=[C](Nc2ccc(CN[C](NC(C)(C)C)=[Au][Cl])cc2)Nc2c(C)cc(C)cc2C)c(C)c1
IC50 (cell growth or viability): > 100 µM

C=CCSc1nc(N)c2c(F)c(C#N)c(F)c(Cl)c2n1
IC50 (cell growth or viability, MTT; 96 h): 18.8 µM

CC1=CC(C)=[N+]2C1=C(CO)c1c(C)cc(C)n1[B-]2(F)F
IC50 (cell viability, resazurin; 48 h, 510 nm irradiation 2.44 J/cm2): 11 ± 3 µM

C=C1CC23CC4C5C6(C)CC(O)CC57C(C2C(O)C1C(O)C37)N4C6 (stereo not shown)
IC50 (cell growth or viability, MTT): 17.7 µM

CC1=CC(C(F)(F)F)=[O+][Pt-2]([NH3+])([NH3+])[O]1.CC1=CC(C(F)(F)F)=[O+][Pt-2]([NH3+])([NH3+])[O]1.O=S(=O)([O-])[O-] (stereo not shown)
IC50 (cell growth or viability, MTT): 2.2 µM

CC(=O)O[C@H]1C[C@H](O[C@H]2[C@@H](O)C[C@H](O[C@H]3[C@@H](O)C[C@H](O[C@H]4CC[C@@]5(C)[C@H](CC[C@@H]6[C@@H]5CC[C@]5(C)[C@@H](C7=CC(=O)OC7)CC[C@]65O)C4)O[C@@H]3C)O[C@@H]2C)O[C@H](C)[C@H]1O[C@@H]1O[C@H](CO)[C@@H](O[C@@H]2O[C@H](CO)[C@@H](O)[C@H](O)[C@H]2O)[C@H](O)[C@H]1O
IC50 (cell growth or viability, MTT; 48 h): 0.25 µM

CC1=CC(C)=[N+]2C1=C(CO)c1c(C)cc(C)n1[B-]2(C)C
IC50 (cell growth or viability, resazurin; dark): > 100 µM

N=C(N)Nc1nc2ccccc2s1
IC50 (cell growth or viability, MTT; 24 h): > 200 µM

Nc1cccc[n+]1CCCCC[n+]1ccccc1N
IC50 (cell growth or viability, MTT; 24 h): 1000 µM

O=C1c2cccc[c]2[Au-]([Cl])([Cl])[N+]1=P(c1ccccc1)(c1ccccc1)c1ccccc1
IC50 (cell growth or viability, MTT; 24 h): 85.3 µM

CC(=O)O[C@@H]1CC[C@@]2(C)[C@@H](CC[C@]3(C)[C@@H]2C(=O)C=C2[C@@H]4[C@@H](C)[C@H](C)CC[C@]4(C)CC[C@]23C)[C@@]1(C)C(=O)O
IC50 (cell growth or viability, MTT; 48 h): 27 µM

N#Cc1cccc(-c2ccc(=O)n(Cc3cccc(-c4ncc(OCC5CCN(CCCCCCCCC(=O)Nc6cccc7c6C(=O)N(C6CCC(=O)NC6=O)C7=O)CC5)cn4)c3)n2)c1 (stereo not shown)
IC50 (cell growth or viability, CCK-8; 72 h): 45.6 µM

O=C1c2cccc3cccc(c23)C12NC(Cc1ccc(O)cc1)C([N+](=O)[O-])C2c1ccc(Br)cc1 (stereo not shown)
IC50 (cell growth or viability, MTT; 24 h): 40.2 µM

CCCC(CCC)C(=O)NCCNC(=O)[C@@]1(C)[C@H](O)CC[C@@]2(C)[C@H]1CC[C@]1(C)[C@@H]2C(=O)C=C2[C@@H]3[C@@H](C)[C@H](C)CC[C@]3(C)CC[C@]21C
IC50 (cell growth or viability, MTT; 48 h): > 30 µM

[Cl-].[Cl-].[Ru+2].c1ccc2nc(-c3ccc4ccccc4n3)ccc2c1.c1ccc2nc(-c3ccc4ccccc4n3)ccc2c1.c1cnc2c(c1)ccc1cccnc12
IC50 (cell growth or viability; 72 h, dark): 31.3 µM
